Measured values pooled from the literature.
Lines come from different studies, so protocols differ. Numbers after ± are the reported error.

The Tmax of `Cc1ccc(NC(=O)c2ccc(CN3CCN(C)CC3)cc2)cc1Nc1nccc(-c2cncc(-c3oncc3C)c2)n1` is reported as 4.68 h (healthy volunteers, plasma; oral, 25.0 mg once daily, day 7, 7-day dosing, mean).
`C[C@@H](N)c1cc(Cl)ccc1Cn1c(=S)[nH]c(=O)c2[nH]ccc21` gave a Tmax of 2 h (healthy Japanese volunteers, plasma; oral, 5 mg once daily, day 10, median).
`COc1ccc2c3c1O[C@H]1C[C@@H](OC(=O)c4ccccc4)C=C[C@@]31CCN(C)C2` has a Tmax of 0.71 h (healthy elderly men, plasma; intranasal, 44 mg, single dose).
With `CC(C)(Sc1ccncc1-c1ccc(C#N)c2ccccc12)C(=O)O` the Tmax was 2.5 h (male, plasma; oral, 15 mg, mild renal impairment, fasted).
The Tmax of `Cc1cn([C@H]2C[C@H](N=[N+]=[N-])[C@@H](CO)O2)c(=O)[nH]c1=O` is reported as no more than 1.08 h (healthy men, PBMCs; oral, 600 mg).
The Tmax of `CN[C@H]1C(=O)N[C@@H]2Cc3ccc(cc3)Oc3cc4cc(c3O[C@@H]3O[C@H](C(=O)O)[C@@H](O)[C@H](O)[C@H]3NC(=O)CCCCCCCCC(C)C)Oc3ccc(cc3Cl)[C@@H](O)[C@@H]3NC(=O)[C@H](NC(=O)[C@@H]4NC(=O)[C@@H](NC2=O)c2cc(cc(O)c2Cl)Oc2cc1ccc2O)c1ccc(O)c(c1)-c1c(O[C@H]2O[C@H](CO)[C@@H](O)[C@H](O)[C@@H]2O)cc(O)cc1[C@@H](C(=O)NCCCN(C)C)NC3=O` is reported as 1 h (healthy Japanese subjects, plasma; intravenous infusion, 1000 mg, 30 min infusion, single dose, median).
`NC(=O)c1cnc2[nH]ccc2c1N[C@@H]1[C@@H]2CC3C[C@H]1C[C@@](O)(C3)C2` has a Tmax of 1 h (healthy Caucasian men, plasma; oral, 20 mg, single dose fasted median).
`CC(C(=O)O)c1ccc(-c2ccccc2)c(F)c1` (centres unmarked) gave a Tmax of 1 h (rabbit, male, plasma; oral, 2.58 mg/kg, single dose).
The Tmax of `CC(=O)Nc1ccc(O)cc1` is reported as 0.84 h (healthy volunteers, both sexes, plasma; oral, 650 mg, day 2, together with: favipiravir, acute).
`CC[C@H](C)[C@H](NC(=O)[C@H](CCC(=O)O)NC(=O)[C@H](CO)NC(=O)[C@@H](NC(=O)[C@@H](N)CO)C(C)C)C(=O)N[C@@H](CCC(N)=O)C(=O)N[C@@H](CC(C)C)C(=O)N[C@@H](CCSC)C(=O)N[C@@H](Cc1cnc[nH]1)C(=O)N[C@@H](CC(N)=O)C(=O)N[C@@H](CC(C)C)C(=O)NCC(=O)N[C@@H](CCCCN)C(=O)N[C@@H](Cc1cnc[nH]1)C(=O)N[C@@H](CC(C)C)C(=O)N[C@@H](CC(N)=O)C(=O)N[C@@H](CO)C(=O)N[C@@H](CCSC)C(=O)N[C@@H](CCC(=O)O)C(=O)N[C@@H](CCCN=C(N)N)C(=O)N[C@H](C(=O)N[C@@H](CCC(=O)O)C(=O)N[C@@H](Cc1c[nH]c2ccccc12)C(=O)N[C@@H](CC(C)C)C(=O)N[C@@H](CCCN=C(N)N)C(=O)N[C@@H](CCCCN)C(=O)N[C@@H](CCCCN)C(=O)N[C@@H](CC(C)C)C(=O)N[C@@H](CCC(N)=O)C(=O)N[C@@H](CC(=O)O)C(=O)N[C@H](C(=O)N[C@@H](Cc1cnc[nH]1)C(=O)N[C@@H](CC(N)=O)C(=O)N[C@@H](Cc1ccccc1)C(=O)O)C(C)C)C(C)C` gave a Tmax of 0.573 to 0.685 h (postmenopausal women, osteoporosis, plasma; subcutaneous, 56.5 µg once weekly).
`COc1ccc(-n2nc(C(N)=O)c3c2C(=O)N(c2ccc(N4CCCCC4=O)cc2)CC3)cc1` gave a Tmax of 2 to 4 h (healthy Chinese subjects; oral, 10 mg single and multiple).
For `CO/N=C1\C[C@]2(C[C@@H]3C[C@@H](C/C=C(\C)C[C@@H](C)/C=C/C=C4\CO[C@@H]5[C@H](O)C(C)=C[C@@H](C(=O)O3)[C@]45O)O2)O[C@H](/C(C)=C/C(C)C)[C@H]1C`, the Tmax was 12 ± 4.56 h (HPLC, non-compartmental; Corriedale lambs, parasitized, plasma; subcutaneous, 0.2 mg/kg, together with: closantel 5 mg/kg subcutaneous).
`Cc1nc(-c2ccc(OCC(C)C)c(C#N)c2)sc1C(=O)O` has a Tmax of 2 h (healthy men, plasma; oral, 40 mg once daily, day 14, median, together with: verinurad 10 mg).
`Nc1cc(F)ccc1NC(=O)c1ccc(CNC(=O)/C=C/c2cccnc2)cc1` has a Tmax of 5 h (Japanese patients, plasma; oral, 30 mg twice weekly, cycle 1 day 25, median).
For `CON(C)C(=O)N1N=C(c2cc(F)ccc2F)S[C@@]1(CCCN)c1ccccc1`, the Tmax was 1 h (patients, plasma; intravenous, cycle 1 day 3, median).
`CC(=O)Nc1ccc(O[C@@H]2O[C@H](C(=O)O)[C@@H](O)[C@H](O)[C@H]2O)cc1` has a Tmax of 2.1 h (healthy volunteers, both sexes, plasma; oral, 650 mg acetaminophen, day 6, together with: favipiravir, extended).
With `CCCN1CC(c2ccc(S(C)(=O)=O)cc2)=C(c2ccc(C)cc2)C1=O` the Tmax was roughly 2 h (healthy Chinese, pooled groups, plasma; oral, 100 mg, fasting).
For `CCOc1ccc(Cc2cc([C@@H]3S[C@H](CO)[C@@H](O)[C@H](O)[C@H]3O)c(OC)cc2C)cc1`, the Tmax was 0.5 h (Japanese type 2 diabetes patients, plasma; oral, 5 mg single dose, eGFR ≥90 mL/min/1.73 m^2, median).
`C[C@@H](Oc1ccc(S(C)(=O)=O)cc1C(=O)N1C[C@@H]2C[C@]2(c2cc(C(F)(F)F)on2)C1)C(F)(F)F` gave a Tmax of 2.5 h (healthy male volunteers, plasma; oral, 25 mg, median, together with: itraconazole).
With `C[C@@H](O)[C@H]1C(=O)N2C(C(=O)O)=C(S[C@@H]3CN[C@H](C(=O)N(C)C)C3)[C@H](C)[C@H]12` the Tmax was 0.25 h (Danish Landrace pig, plasma; intravenous infusion, 1000 mg over 10 min, together with: vancomycin).
`CCC(CC)O[C@@H]1C=C(C(=O)O)C[C@H](N)[C@H]1NC(C)=O` gave a Tmax of 6.22 ± 1.31 h (healthy Indian subjects, fed, plasma; oral, 75 mg oseltamivir phosphate, reference capsule formulation, Tamiflu).
`CC1=C2C[C@H]3[C@@H](CC[C@@H]4C[C@H](NS(C)(=O)=O)CC[C@@]43C)[C@@H]2CC[C@@]2(C1)O[C@@H]1C[C@H](C)CN[C@H]1[C@H]2C` has a Tmax of 6 h (patients, plasma; oral, 20 mg single, day -7, cycle 1).
For `COc1cc(OC)c(/C=C/S(=O)(=O)Cc2ccc(OC)c(NCC(=O)O)c2)c(OC)c1`, the Tmax was 1.02 ± 0.32 h (cancer patients, phase I, plasma; oral, 560 mg twice daily, day 1 cycle 1).
With `CO[C@H]1C[C@@H]2CC[C@@H](C)[C@@](O)(O2)C(=O)C(=O)N2CCCC[C@H]2C(=O)O[C@H]([C@H](C)C[C@@H]2CC[C@@H](OP(C)(C)=O)[C@H](OC)C2)CC(=O)[C@H](C)/C=C(\C)[C@@H](O)[C@@H](OC)C(=O)[C@H](C)C[C@H](C)/C=C/C=C/C=C/1C` the Tmax was 4.04 h (HPLC-MS/MS; Japanese patients, whole blood; oral, 40 mg, day 26, cycle 1, median).
With `CS(=O)(=O)n1cc2c(n1)CN([C@H]1CO[C@H](c3cc(F)ccc3F)[C@@H](N)C1)C2` the Tmax was 2 h (healthy Japanese men, plasma; oral, 1 mg once weekly, day 15).
For `CC(C)=CCC[C@](C)(O[C@@H]1O[C@H](CO)[C@@H](O)[C@H](O)[C@H]1O)[C@H]1CC[C@]2(C)[C@@H]1[C@H](O)C[C@@H]1[C@@]3(C)CC[C@H](O[C@@H]4O[C@H](CO)[C@@H](O)[C@H](O)[C@H]4O[C@@H]4O[C@H](CO)[C@@H](O)[C@H](O)[C@H]4O)C(C)(C)[C@@H]3CC[C@]12C`, the Tmax was 10.5 ± 3.88 h (LC-MS/MS; healthy volunteers, serum; oral, 3 g fermented red ginseng).
With `Cc1ccc(Sc2ccccc2N2CCNCC2)c(C)c1` the Tmax was 8.3 h (healthy men, plasma; oral, 10 mg once daily, fed, day 12).
`CC(C)(C)c1nc(-c2cccc(NS(=O)(=O)c3c(F)cccc3F)c2F)c(-c2ccnc(N)n2)s1` gave a Tmax of roughly 2 h (Japanese patients, plasma; oral, 150 mg twice daily, repeat dosing, median, together with: trametinib 2 mg once daily).
For `NS(=O)(=O)c1cc(Cl)c(Cl)c(S(N)(=O)=O)c1`, the Tmax was 2 h (healthy volunteers, plasma; oral, 100 mg, single dose, median).
The Tmax of `CN[C@H](CC(C)C)C(=O)N[C@H]1C(=O)N[C@@H](CC(N)=O)C(=O)N[C@H]2C(=O)N[C@H]3C(=O)N[C@H](C(=O)N[C@H](C(=O)O)c4cc(O)cc(O)c4-c4cc3ccc4O)[C@H](O)c3ccc(c(Cl)c3)Oc3cc2cc(c3O[C@@H]2O[C@H](CO)[C@@H](O)[C@H](O)[C@H]2O[C@H]2C[C@](C)(N)[C@H](O)[C@H](C)O2)Oc2ccc(cc2Cl)[C@H]1O` is reported as 1.53 h (pig (Danish Landrace), plasma; iv infusion, 1000 mg over 100 min, together with: meropenem co-administered).
`NC(=S)NN=Cc1ncccc1N` gave a Tmax of 1.5 h (human, serum; oral, 200 mg).
The Tmax of `CN1C(=O)[C@@H](NC(=O)c2nnc(Cc3ccccc3)[nH]2)COc2ccccc21` is reported as 2 h (healthy men, plasma; oral, 20 mg once daily, day 1, median).
`O=C1CCc2ccc(OCCCCN3CCN(c4cccc(Cl)c4Cl)CC3)cc2N1` has a Tmax of 1.7 ± 0.5 h (healthy Japanese men, CYP2D6 EM, plasma; oral, 3 mg aripiprazole single, together with: paroxetine 20 mg/day).
`CC(C)=CCC[C@](C)(O[C@@H]1O[C@H](CO)[C@@H](O)[C@H](O)[C@H]1O)[C@H]1CC[C@]2(C)[C@@H]1[C@H](O)C[C@@H]1[C@@]3(C)CC[C@H](O[C@@H]4O[C@H](CO)[C@@H](O)[C@H](O)[C@H]4O)C(C)(C)[C@@H]3CC[C@]12C` has a Tmax of 10.8 ± 3.28 h (LC-MS/MS; healthy volunteers, serum; oral, 3 g fermented red ginseng).
`CCCCC[C@H](O)CC[C@@H]1[C@H]2Cc3cccc(OCC(=O)O)c3C[C@H]2C[C@H]1O` has a Tmax of 0.22 ± 0.25 h (Japanese patients with PAH, plasma; inhaled, 54 µg four times daily, week 12).
`COc1c(N2C[C@@H]3CCCN[C@@H]3C2)c(F)cc2c(=O)c(C(=O)O)cn(C3CC3)c12` has a Tmax of 2.4 h (HPLC-MS/MS; healthy adults, plasma; oral, 400 mg).
For `COc1cc2c(cc1OC)CN(CCc1ccc(NC(=O)c3cc(OC)c(OC)cc3NC(=O)c3cnc4ccccc4c3)cc1)CC2`, the Tmax was 2.8 h (human, plasma; intravenous infusion, 6 mg/kg).
`CCCOc1ccc([C@H]2CNC(=O)N2c2ccc3[nH]cnc3c2)cc1` has a Tmax of 0.5 h (non-elderly adults, fasted, plasma; oral, 20 mg twice daily, day 11, oral solution, median).
